Measured values of several laboratories.
Every numbered part comes from another study and shows a few of its results, in no order. Substitutions count along the parent as printed.

Series 1 — technique: DHFR PCA, deep sequencing; sample: yeast; added: (+)-ABA 2500 µM; reference: wild-type fitted maximum; direction: higher = stronger binding
Target: ABI1, truncated, D143A, DHFR fusion (Arabidopsis thaliana)
Notes: methotrexate growth selection, single substitutions
Parent: PYL1, truncated, DHFR fusion (Arabidopsis thaliana); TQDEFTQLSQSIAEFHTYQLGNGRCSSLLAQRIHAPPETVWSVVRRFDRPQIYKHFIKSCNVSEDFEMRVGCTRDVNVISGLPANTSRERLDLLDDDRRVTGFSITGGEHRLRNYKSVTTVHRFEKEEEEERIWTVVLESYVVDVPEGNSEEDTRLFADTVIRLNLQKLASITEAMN; partner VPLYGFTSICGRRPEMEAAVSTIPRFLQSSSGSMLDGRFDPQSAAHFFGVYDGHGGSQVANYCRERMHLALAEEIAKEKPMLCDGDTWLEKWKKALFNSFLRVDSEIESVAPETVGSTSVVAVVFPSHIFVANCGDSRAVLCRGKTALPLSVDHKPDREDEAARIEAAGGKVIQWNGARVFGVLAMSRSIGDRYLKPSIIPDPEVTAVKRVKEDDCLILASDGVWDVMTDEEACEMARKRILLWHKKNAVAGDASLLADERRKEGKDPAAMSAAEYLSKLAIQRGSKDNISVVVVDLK
| Change | relative binding score [%] |
| --- | --- |
| R46K | 91.1 |
| V100A | 107 |
| T160H | 93.8 |
| S171R | 93.5 |
| F15M | 86.7 |
| T73H | 98 |
| V62M | 95.8 |
| K126Y | 99.8 |
| E152N | 92.9 |
| K116E | 89.8 |
| Y141Q | -5.52 |
| G71C | 77.6 |
| N22H | 104 |
| I172Y | 95.4 |

Series 2 — technique: protein binding microarray; form: double-stranded DNA, one strand shown; sample: in vitro; concentration: not given; reference: not given; direction: higher = stronger binding
Target: Histone acetyltransferase KAT6A, winged helix 2, GST fusion (KAT6A, Homo sapiens, UniProt Q92794, residues 85-181)
Notes: 8-mer, flanks averaged, mean of 2 arrays, mostly near background
Residues (chain): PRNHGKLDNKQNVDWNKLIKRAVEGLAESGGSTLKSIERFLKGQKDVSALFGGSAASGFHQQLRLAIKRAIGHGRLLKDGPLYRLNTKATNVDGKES
| Sequence | E-score |
| --- | --- |
| ACATCACT | -0.072 |
| AGGGTTGA | -0.0928 |
| ACACGTCT | -0.258 |
| ACCCCGTG | -0.0376 |
| CCACTGGA | 0.0294 |
| CATATGTC | -0.139 |
| ATAGCGGA | -0.0832 |
| GTCGACCA | -0.0284 |
| AGCCTGGA | 0.0258 |
| AATCTTCT | -0.0617 |
| AATGAGCC | -0.0657 |
| AGGCACGG | 0.0288 |
| CATGGTAG | -0.129 |
| GCGAGAAA | 0.0458 |
| CATCGCAG | 0.0621 |
| GCGTCCAC | 0.0831 |
| CTTAACCA | -0.0961 |
| CAGTCCCC | -0.0494 |
| ACGGCAAC | 0.0683 |
| GAGTCGGA | -0.16 |
| CTCGGTCC | 0.0254 |
| GATCGCTA | -0.134 |
| CCTACATC | -0.19 |
| GGCCACAA | 0.0339 |
| ACGATCCC | -0.161 |

Series 3 — technique: aptamer microarray, sandwich; form: DNA with 2'F-ANA; sample: in vitro; concentration: 200 nM; added: Cy3 exosite-II aptamer, 400 nM; direction: higher = stronger binding; sequence: GGTTGGTGTGGTTGG
Target: Prothrombin, mature alpha-thrombin (F2, Homo sapiens, UniProt P00734)
Notes: whole 15-mer aptamer, many near background
| Modification | mean fluorescence intensity |
| --- | --- |
| 2'F-ANA at 2 6 8 12 | 799 a.u. |
| 2'F-ANA at 1 3 6 7 9 10 11 14 15 | 70.1 a.u. |
| 2'F-ANA at 3 6 7 8 9 10 11 13 14 | 352 a.u. |
| 2'F-ANA at 2 3 4 5 8 10 12 13 | 81.6 a.u. |
| 2'F-ANA at 1 3 6 9 12 14 | 95.2 a.u. |
| 2'F-ANA at 3 5 8 9 10 11 15 | 57.5 a.u. |
| 2'F-ANA at 1 2 3 4 5 6 10 11 12 13 14 | 47 a.u. |
| 2'F-ANA at 1 3 4 6 10 12 13 15 | 68.5 a.u. |
| 2'F-ANA at 1 2 3 4 7 8 9 11 14 | 66.1 a.u. |
| 2'F-ANA at 1 2 5 6 7 10 13 | 58.8 a.u. |
| 2'F-ANA at 1 3 4 6 8 9 13 14 15 | 61.1 a.u. |
| 2'F-ANA at 1 2 5 6 7 10 11 12 13 14 15 | 49.3 a.u. |
| 2'F-ANA at 2 4 8 9 12 14 | 155 a.u. |
| 2'F-ANA at 1 4 5 6 7 8 10 14 15 | 51.2 a.u. |
| 2'F-ANA at 1 2 3 5 6 10 14 | 66.5 a.u. |
| 2'F-ANA at 1 3 9 11 12 13 15 | 357 a.u. |
| 2'F-ANA at 1 3 4 5 9 13 14 15 | 177 a.u. |
| 2'F-ANA at 1 5 6 8 13 14 15 | 49.4 a.u. |
| 2'F-ANA at 1 2 4 5 6 7 8 11 12 13 14 | 104 a.u. |

Series 4 — technique: universal PBM; form: double-stranded DNA, one strand shown; sample: in vitro; concentration: not given; direction: higher = stronger binding
Target: Sal-like protein 4, full length isoform B (SALL4, Homo sapiens, UniProt Q9UJQ4-2, residues 1-616)
Notes: 8-mer, flanks averaged, mean of replicates
| Sequence | E-score |
| --- | --- |
| GTATTGGA | 0.148 |
| AGGCTTAT | 0.139 |
| CCGAACAC | -0.0667 |
| CGATCTAA | 0.0579 |
| CCAACTGG | -0.1 |
| CGTTAAGC | -0.116 |
| ATTGTCGA | 0.0942 |
| CATAAGCA | 0.186 |
| CTAGCCGA | -0.165 |
| GCACAAGC | -0.034 |
| CAATGGCA | 0.0439 |
| AGCTAAAC | -0.115 |
| GATTAGGC | 0.0127 |
| CTGCACAC | -0.057 |
| AATGTGCT | 0.167 |
| ACCATTAA | 0.261 |
| CATATCAC | 0.261 |
| AATCCGAT | 0.157 |

Series 5 — technique: RNA Bind-n-Seq; form: RNA; sample: in vitro; concentration: 365 nM; reference: no-protein control; direction: higher = stronger binding
Target: RNA binding protein fox-1 homolog 2, RRM domain, GST-SBP tag (RBFOX2, Homo sapiens, UniProt O43251-10, residues 100-194)
Notes: natural RNA segment, single round, ends assumed
Constant ends, left off below: GGGAGUUCUACAGUCCGACGAUC … UGGAAUUCUCGGGUGCCAA
Residues (chain): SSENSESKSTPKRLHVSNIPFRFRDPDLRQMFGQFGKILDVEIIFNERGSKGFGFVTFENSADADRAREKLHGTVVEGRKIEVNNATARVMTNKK
| Sequence | RBNS enrichment (R) |
| --- | --- |
| GCCAACGUAGCUGAUGCUCAGGGUCAGGCCUCGCCCCUUCGCCGCAGGUCUCAGGAUCGGGGAUAACAUCGCUCCCACCCUGCUCAUUUAGAGAUGGGAAACAAGCAAGA | 0.379 |
| CCACCCCGAUUCUCACCACAAAGUUAGAAACCCUCCACUUUCUGUCCCUUGAACCAUAUCAGAAAAAGACCCAUUUCCUUGCUCUUUGGUAAUCACUUCUGUUUUUUUCU | 0.753 |
| UCUUCAGAAAUAUUAUUUGACCUACAGUAUGUUUAAAUCAAUUUAAUAAAAUCACUUUAUAACAGGACCCUAUGUUUCCUGUGUGGUGUAUGAGUUCAGUAGUCCUGGCG | 0.494 |
| UGGACUCAGAGGAGGAAUCGUGGAAAACAAGAGCAAAACUACCCCACACCCCUAUUUCAUGUCUGAAAUAACCCUGUUUCAUACCAGUUGCAAAGCUUGUGGGGAGCGGU | 0.506 |
| GCUGUUUGGUAUGUGAGGGUUUCAGUACAAAUGCUGCUGUCUAUUUCUGUGCACUUAACAAUGGAACCCAAACAGAAGAGAAUAAAGCCUUGAUACCAAAAUUGGGAAAG | 0.592 |
| UUUCUCUGUGUAGCCCUGGCCGUCCUGGAACUCACUUUGUAGAUCAGGCUGGCCUCGAACUCAGAAAUCGGCCUGCCUCUGCCUCCCGAGUGCUGGGAUUAAAGGCGUGC | 0.277 |
| UGGAAGUUCUGCCACUGUACUCUGGAAAUCCUGUCCUCACCUUGCCCUUCCCUGAGCAUCCGACUCUUCCAGCAACAAUUCUGUUGGAUUUAAGGCCAAGGGCCAGUGGG | 0.501 |
| GAUACAGGGUGAAAUAAAGUCUUGUCUUAGAAACCAGGACCCUAAACCCCACACUAUGUAAUAGAAACACAUGUGUUUUUAUGUCUCAAAUAAAACUAUUAUAUCACUUG | 0.317 |

For quick reference, copied from above (series 2):
| Sequence | E-score |
| --- | --- |
| ACGGCAAC | 0.0683 |
| ACATCACT | -0.072 |
| CTTAACCA | -0.0961 |
| GCGTCCAC | 0.0831 |
| CATCGCAG | 0.0621 |
| AATGAGCC | -0.0657 |
| ATAGCGGA | -0.0832 |
| GTCGACCA | -0.0284 |
| CCTACATC | -0.19 |
| GCGAGAAA | 0.0458 |
| CTCGGTCC | 0.0254 |
| AGGCACGG | 0.0288 |
| GGCCACAA | 0.0339 |
| AGGGTTGA | -0.0928 |
